Experimental data from different studies.
A part holds a random share of what one study measured. Substitutions count along the parent as printed.

Study 1 — technique: DHFR PCA, deep sequencing; matrix: yeast; together with: (+)-ABA 2500 µM; relative to: wild-type fitted maximum; reading: higher = stronger binding
Target: ABI1, truncated, D143A, DHFR fusion (Arabidopsis thaliana)
Setting: methotrexate growth selection, single substitutions
Starting sequence: PYL1, truncated, DHFR fusion (Arabidopsis thaliana); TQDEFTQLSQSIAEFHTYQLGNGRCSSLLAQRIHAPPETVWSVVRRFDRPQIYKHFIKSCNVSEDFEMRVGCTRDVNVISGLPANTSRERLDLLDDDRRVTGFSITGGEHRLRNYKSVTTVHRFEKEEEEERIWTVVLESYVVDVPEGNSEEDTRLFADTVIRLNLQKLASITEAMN
Substitution	relative binding score
T135G	51.9%
T86E	88.7%
P36F	88.9%
L20F	91.6%
L156D	94.5%
L91M	95.5%
E129L	103%
V118C	97.4%
S11K	104%
Q2W	87.3%
E130Q	101%
E139Y	97.9%
A84P	27.8%
H55R	95.2%
P36S	102%
P83N	68.3%
D159G	91.1%
Y53L	43.8%
M68N	93.6%
T120R	28.4%
S63P	98.7%

Study 2 — technique: RNA Bind-n-Seq; form: RNA; matrix: in vitro; tested at: 20 nM; setting: 6-mer, flanks averaged, single round; together with: 150 mM KCl; relative to: input library; reading: higher = stronger binding
Target: TAR DNA-binding protein 43, full length, His tag (TARDBP, Homo sapiens, UniProt Q13148, residues 1-414)
Oligonucleotide	6-mer enrichment (R)
CAUCUC	0.544
AUGUGC	0.908
CAUUAU	0.574
CGUGUG	1.59
CCGAAU	0.67
CAGACG	0.956
CCUUUC	0.597
AUUAUU	0.62
GCGAGG	3.97
ACGAGC	0.852
UAUCCU	0.555
ACCUCC	0.593
CUCUGG	0.849
AGAAUU	0.646
UAUUGC	0.62
UGUGCG	1.67

Study 3 — target: CCNF, cyclin fold, Cln2 fusion (human); technique: yeast growth competition, sequencing; matrix: yeast; setting: strong parent motif; relative to: not given; reading: higher = stronger binding
Starting sequence: SCAPER docking peptide (human); SNARRSLNFGGST
Substitution	normalised enrichment score
G10Q	6.33
S6H	7.95
N8E	5.71
F9T	0.666
N8A	5.08
G11N	6.84
R4Y	3.67
N2Y	7.01
G10S	6.96
F9E	-0.296
S6E	5.3
A3N	1.9
F9D	0.194
N8D	6.22

Mixed results
Molecule	target	test	test system	conditions	how to read	measurement	result
PhoQ, residues 284 288 289 292 302 303 HSSMNL	PhoP, residues 12 14 15 18 19 LFHKL (Escherichia coli, UniProt P23836)	Sort-seq, item: YFP reporter	E. coli	PhoQ-PhoP variant library, together with: 10 µM Mg2+	relative to: high Mg2+ state, higher = stronger signaling	fold induction	7.37

Some of these lines once more (study 1):
Substitution	relative binding score
P36S	102%
P83N	68.3%
D159G	91.1%
